Experimental data collected from several papers.
Lines come from different studies, so protocols differ. Several values in a cell are separate wells, animals, samples, runs or records. ± gives the spread as reported.

Compound	test	system	setting	how to read	measurement	value
C/C=C/C[C@@H](C)C(=O)[C@H]1C(=O)N[C@@H](C(C)C)C(=O)N(C)CC(=O)N(C)[C@@H](CC(C)C)C(=O)N[C@@H](C(C)C)C(=O)N(C)[C@@H](CC(C)C)C(=O)N[C@@H](C)C(=O)N[C@H](C)C(=O)N(C)[C@@H](CC(C)C)C(=O)N(C)[C@@H](CC(C)C)C(=O)N(C)[C@@H](C(C)C)C(=O)N1C		Sprague Dawley rat, plasma	intravenous infusion, 0.89 mg/h/kg, 4 h, 4.5 h constant infusion		total plasma concentration	5390 ng/mL
CNCc1ccc(-c2[nH]c3cc(F)cc4c3c2CCNC4=O)cc1	refers to: Nausea	human patients	oral, dose not given, all grades, all doses		patients with adverse event	51.8%
Clc1ccc([C@@H]2COC[C@H](c3cc(Cl)cc(Cl)c3)N2)cc1	shake-flask, 1-octanol/buffer		pH 7.4		logD	> 4.7
Cc1cn(-c2cc(NC(=O)c3ccc(C)c(Nc4nccc(-c5cccnc5)n4)c3)cc(C(F)(F)F)c2)cn1	population PK model, typical value	human, plasma	oral, fasted state		secondary depot absorption rate constant	0.141 h⁻¹
Cc1nc(C)c(-c2ccnc(Nc3ccc(Cl)cc3)n2)s1		octanol/buffer	67 µM, pH 7.4		logD	5.1
O=C(Nc1cnccc1Cl)N1CCN(Cc2ccc3c(c2)OC(F)(F)O3)CC1	multiple ascending dose	young men	75 mg, at least 1 treatment-emergent event		subjects with adverse events	83.3%
CC[C@H](C)[C@H](NC(=O)[C@H](Cc1ccccc1)NC(=O)[C@H](CCC(=O)O)NC(=O)[C@H](CCCCNC(=O)COCCOCCNC(=O)COCCOCCNC(=O)CC[C@H](NC(=O)CCCCCCCCCCCCCCCCC(=O)O)C(=O)O)NC(=O)[C@H](C)NC(=O)[C@H](C)NC(=O)[C@H](CCC(N)=O)NC(=O)CNC(=O)[C@H](CCC(=O)O)NC(=O)[C@H](CC(C)C)NC(=O)[C@H](Cc1ccc(O)cc1)NC(=O)[C@H](CO)NC(=O)[C@H](CO)NC(=O)[C@@H](NC(=O)[C@H](CC(=O)O)NC(=O)[C@H](CO)NC(=O)[C@@H](NC(=O)[C@H](Cc1ccccc1)NC(=O)[C@@H](NC(=O)CNC(=O)[C@H](CCC(=O)O)NC(=O)C(C)(C)NC(=O)[C@@H](N)Cc1cnc[nH]1)[C@@H](C)O)[C@@H](C)O)C(C)C)C(=O)N[C@@H](C)C(=O)N[C@@H](Cc1c[nH]c2ccccc12)C(=O)N[C@@H](CC(C)C)C(=O)N[C@H](C(=O)N[C@@H](CCCNC(=N)N)C(=O)NCC(=O)N[C@@H](CCCNC(=N)N)C(=O)NCC(=O)O)C(C)C	12-lead Holter ECG	healthy humans	subcutaneous, 1.5 mg once weekly, 25 h, steady state	relative to: placebo	QTcF change from baseline	-0.3 ms
CC(C)(C)c1ccc([C@H]2COC[C@@H](C3CCCCC3)N2)cc1	shake-flask, 1-octanol/buffer		pH 7.4		logD	> 4.7
CS(=O)(=O)N(CC(=O)Nc1ccccc1C(=O)N1CCOCC1)c1ccc(Cl)cc1		octanol/buffer	pH 7.4		logD	1.75
CN(CC#N)C(=O)C[C@H](Nc1nc2ccccc2[nH]1)c1cccc(C(F)(F)F)c1		human	intravenous infusion, 4 mg/kg, 1 mg/mL formulation		apparent clearance	14.8 ± 5.33 L/h
Cc1ccc([C@@H]2O[C@H](CO)[C@@H](O)[C@H](O)[C@H]2O)cc1Cc1ccc(-c2ccc(F)cc2)s1		Japanese type 2 diabetes patients	200 mg, day 4, 24 h urine collection	relative to: baseline	urinary chloride excretion change	-15.4 mEq
Cc1cc(NC(=O)c2cccc(NC(=O)/C=C/CN(C)C)c2)ccc1Nc1nccc(-c2cccnc2)n1		rat Wistar male, primary hepatocytes	1 µM		intrinsic clearance, scaled	11.7 mL/min/kg
Cl.[2H]C([2H])([2H])CC(=O)c1cnc(NC(=O)C2CC2)cc1Nc1cccc(-c2ncn(C([2H])([2H])[2H])n2)c1OC	geometric mean	human	oral, 10 mg once daily, day 7, fasted, liquid, multiple dose		Vz/F	152 L
CN1C(=O)[C@@H](NC(=O)c2nnc(Cc3ccccc3)[nH]2)COc2cccnc21	phase I multiple ascending dose	human, male and female	oral, 100 mg, 14 days		participants with any serious TEAE	0%
FC(F)(F)c1ccc(CNc2ccc(Cc3c[nH]c4ncc(Cl)cc34)cn2)cn1	refers to: Diarrhea	patients with advanced solid tumours, non-TGCT cohort	oral, 1000 mg/day, grade 3 or higher		treatment-related adverse events	0%
COc1cc(N2CCC3(CCN(C)CC3)CC2)ccc1Nc1ncc(Cl)c(Nc2ccccc2P(C)(C)=O)n1	population PK model	human	oral, base structural model		V1/F	339 L
CC(C)c1c(C(=O)Nc2ccccc2O)c(-c2ccccc2)c(-c2ccc(F)cc2)n1CC[C@@H]1C[C@@H](O)CC(=O)O1	reverse phase LC, C18	acetonitrile gradient, 0.1% formic acid	converted from retention time	relative to: Valko CHI standards	chromatographic hydrophobicity index	103
CN(C(=O)C(C)(C)c1cc(C(F)(F)F)cc(C(F)(F)F)c1)c1cnc(N2C[C@H]3COCCN3C[C@H]2CO)cc1-c1ccc(F)cc1[14CH3]	metabolite formation, refers to: M30/34 formation	human liver microsomes	1 min, pH 7.4		Km	0.319 µM

Compound	test	system	setting	how to read	measurement	value
CNC(=O)c1ccc(-c2cnc3ncc(Cc4ccc5ncccc5c4)n3n2)cc1F		Japanese patients	oral, 400 mg twice daily, any grade		Dysphonia patients	1%
CN(C)CC#Cc1ccc2[nH]c3c(c2c1)-c1nc(N)ncc1CCC3		CD-1 mice, male, brain	intraperitoneal, 30 mg/kg, 1 h		brain concentration	516 ng/g and 444 ng/g
O=C(OC(C(F)(F)F)C(F)(F)F)N1CCN(Cc2cccc(Oc3ccccc3)c2)CC1	PET blocking study	rhesus monkey, brain THA	0.3 mg/kg, compound pretreatment, with: [18F]T-401 tracer		Ktrans	0.027 min⁻¹
CC1(C)OC[C@H](c2ccc(F)cc2Cl)N[C@@H]1c1ccc(Cl)c(Cl)c1	shake-flask, 1-octanol/buffer		pH 7.4		logD	> 4.7
C[C@@H](c1ncncc1F)[C@](O)(Cn1cncn1)c1ccc(F)cc1F		human	oral, 200 mg, drug interaction trial		grade 2 TEAE	0%
Cc1cc(-c2nccc3c2ccn3CC(=O)Nc2ccc(-c3cnccn3)cn2)ccn1		healthy human volunteers	oral, 40 mg single dose, single ascending dose		general disorder TEAEs	0%
Cn1cnc2c(F)c(Nc3ccc(Br)cc3Cl)c(C(=O)NOCCO)cc21	population PK model	human, plasma	oral, first-order absorption model, fed		absorption rate constant	0.3 h⁻¹
CNC(=O)c1cc(Oc2ccc(NC(=O)Nc3cc(C(C)(C)C)nn3-c3ccc4ncccc4c3)c(F)c2)ccn1	refers to: worst grade 3	human	oral, dose not given, cycles 1 and 2, Low Cmax subgroup		patients with any AE of special interest	12%
C=CC(=O)NC1CCN(c2ncc3ncnc(Nc4ccc(Oc5ccc6c(c5)ncn6C)c(C)c4)c3n2)CC1		healthy male volunteers	oral, 60 mg		estimated first-pass effect	~10%
C[C@@]1(c2cc(NC(=O)c3ccc(C#N)cn3)ccc2F)C=CSC(N)=N1		elderly humans, both sexes, plasma	oral, 10 mg single dose		dose-normalised Cmax	8.39 ng/mL
O=C(O)CCCOc1ccc([18F])cc1-c1cc(-c2ccccc2C(F)(F)F)n(-c2ccccc2)n1	gamma counting	male ddY mice, brain	intravenous, 2.1 MBq, 5 min		radioactivity uptake	0.19 ± 0.01 SUV
O=C(O)c1cccc(C(=O)O)c1		betaine/glycerol DES-water	DES mass fraction 0.30		apparent dissolution enthalpy	4.27 kcal/mol
O=C(Nc1nc2cccc(-c3ccc(CN4CCS(=O)(=O)CC4)cc3)n2n1)C1CC1		rheumatoid arthritis patients	oral, 100 mg twice daily, 4 weeks, TEAE regardless of relatedness		patients with Thrombocytopenia	0%
C[C@@H]1CCO[C@H]2Cn3cc(C(=O)NCc4ccc(F)cc4F)c(=O)c(O)c3C(=O)N12		human, normal renal function, plasma	oral, dose not given, 24 h, steady state, fixed-dose combination		Ctau	1700 ng/mL
CCc1c(-c2ccccc2)c(-c2ccccc2)nn1-c1ccccc1-c1cccc(OCC(=O)O)c1		Sprague-Dawley rat	intravenous		Vz observed	1.82 L/kg and 1.64 L/kg and 1.75 L/kg
Cc1cc(NC2CCN(C(=O)OC3CCN(C(=O)/C=C/CN(C)C)C3)CC2)n2ncc(C(C)C)c2n1 (stereo not drawn)	CTCAE v4.0, refers to: Ascites	patients with advanced solid tumours	oral, dose not given, TIW, grade 3 or higher		patients with TEAE	0%
CC(C)C[C@H](NC(=O)[C@H](CC(C)C)NC(=O)[C@H](Cc1c[nH]c2ccccc12)NC(=O)[C@H](CCC(=O)O)NC(=O)[C@@H](NC(=O)[C@H](Cc1ccccc1)NC(=O)[C@H](CCC(=O)O)NC(=O)[C@H](CCCCNC(=O)COCCOCCNC(=O)COCCOCCNC(=O)CC[C@H](NC(=O)CCCCCCCCCCCCCCCCCCC(=O)O)C(=O)O)NC(=O)[C@H](C)NC(=O)[C@H](CCCCN)NC(=O)[C@H](CCCCN)NC(=O)[C@H](CCC(=O)O)NC(=O)[C@H](CC(=O)O)NC(=O)[C@H](CC(C)C)NC(=O)[C@H](Cc1ccc(O)cc1)NC(=O)[C@H](CCCCN)NC(=O)[C@H](CO)NC(=O)[C@H](Cc1ccc(O)cc1)NC(=O)[C@H](CC(=O)O)NC(=O)[C@H](CO)NC(=O)[C@@H](NC(=O)[C@H](Cc1ccccc1)NC(=O)[C@@H](NC(=O)CNC(=O)[C@H](CCC(N)=O)NC(=O)C(C)(C)NC(=O)[C@@H](N)Cc1c[nH]cn1)[C@@H](C)O)[C@@H](C)O)C(C)C)C(=O)N[C@@H](CCC(=O)O)C(=O)NCC(=O)NCC(=O)N1CCC[C@H]1C(=O)N[C@@H](CO)C(=O)N[C@@H](CO)C(=O)NCC(N)=O		human, plasma	subcutaneous, 16 mg weekly, week 20, cohorts 1 and 2		%AUC extrapolated	0.9%
C[C@@H](N)C1CCN(S(=O)(=O)c2cccc3cnccc23)CC1		healthy volunteers	150 mg, fasted		participants with TEAEs	33.3%

Some of these lines once more:
Compound	test	system	setting	how to read	measurement	value
Cc1cc(NC(=O)c2cccc(NC(=O)/C=C/CN(C)C)c2)ccc1Nc1nccc(-c2cccnc2)n1		rat Wistar male, primary hepatocytes	1 µM		intrinsic clearance, scaled	11.7 mL/min/kg
Cc1cc(-c2nccc3c2ccn3CC(=O)Nc2ccc(-c3cnccn3)cn2)ccn1		healthy human volunteers	oral, 40 mg single dose, single ascending dose		general disorder TEAEs	0%
